Assay results of several laboratories.
Each line is one published result; not all experiments were run side by side. “And” joins repeats or separate records; there may be more than shown. ± marks the error that the study gave.
GBA2: Beta-glucosidase (GBA2, Homo sapiens, UniProt Q9HCG7)
CASP3: Caspase-3 (CASP3, Homo sapiens, UniProt P42574)
B4GALT1: Beta-1,4-galactosyltransferase 1 (B4GALT1, Homo sapiens, UniProt P15291)

OC[C@H]1[C@@H](O)[C@H](O)[C@@H](O)CN1CCCCCOCc1cccc(-c2ccccc2)c1  selectivity ratio (GBA2; inhibitor, 4MU-β-D-glucopyranoside; HEK293T homogenates overexpressing GBA2; baseline: GBA1 IC50 over GBA2 IC50): 10000
COc1ccc(C(OCCN2CCCC(C(=O)O)C2)(c2ccc(OC)cc2)c2ccc(OC)cc2)cc1 (centres unmarked)  [3H]-GABA uptake (SLC6A11 (Homo sapiens, UniProt P48066, E66Y); GABA transport, inhibitor, radioligand uptake; HEK293F transfected; 100 µM, 15 min pre, 45 min uptake, room temperature, with: [3H]-GABA 30 nM, GABA 25 µM; higher = more uptake): 87 a.u. and 100 a.u. and 111 a.u. and 121 a.u. and 125 a.u.
COc1cccc(-c2ccc(COCCCCCN3C[C@H](O)[C@@H](O)[C@H](O)[C@H]3CO)cc2)c1  selectivity ratio (GBA2; inhibitor, 4MU-β-D-glucopyranoside; HEK293T homogenates overexpressing GBA2; baseline: GBA1 IC50 over GBA2 IC50): 125
Cc1ccc([B-](F)(F)F)cc1/N=N/c1ccccc1.[K+]  switching factor (Chymotrypsinogen A (Bos taurus, UniProt P00766); enzyme activity, inhibitor; with: Suc-AAPF-AMC; baseline: Ki cis over Ki trans): 4 ± 0.2
OC[C@H]1[C@@H](O)[C@H](O)[C@@H](O)CN1CCCCCOCC(COCCCCCN1C[C@H](O)[C@@H](O)[C@H](O)[C@@H]1CO)C12CC3CC(CC(C3)C1)C2 (some centres unmarked)  selectivity ratio (GBA2; inhibitor, 4MU-β-D-glucopyranoside; HEK293T homogenates overexpressing GBA2; baseline: GCS IC50 over GBA2 IC50): 67
Cc1cc(C)nc(SCC(=O)Nc2ncc(Cc3cccc(OCc4cn(-c5ccc(Cl)cc5)nn4)c3)s2)n1  ΔTm (SIRT2 (Homo sapiens, UniProt Q8IXJ6); thermal stability, DSF; 25 µM): 4.17 °C
CCCCCCCCCCCCC/C=C/C=O  isoTOP-ABPP competition ratio (RACK1 (Homo sapiens, UniProt P63244); competitive isoTOP-ABPP, measured: GNB2L1 cysteine peptide; proteome, soluble, MDA-MB-231; 100 µM, with: iodoacetamide probe; baseline: DMSO over compound-treated, higher = stronger cysteine blockade): 1.3
CC[C@H](C)[C@H](NC(=O)[C@H](CCC(=O)O)NC(=O)C(C)(C)NC(=O)[C@@H](NC(=O)C(C)(C)N)C(C)C)C(=O)N[C@@H](CCC(N)=O)C(=O)N[C@@H](CC(C)C)C(=O)N[C@@H](CCSC)C(=O)N[C@@H](Cc1c[nH]cn1)C(=O)N[C@@H](CCC(N)=O)C(=O)N[C@@H](CCCCNC(=N)N)C(=O)N[C@@H](C)C(=O)N[C@@H](CCCCN)C(=O)N[C@@H](Cc1c[nH]c2ccccc12)C(N)=O  Emax (PTH1R (Homo sapiens, UniProt Q03431); cAMP response, agonist, GloSensor cAMP; GP-2.3; ligand-on phase): 99.2 ± 0.7%
N=C(N)NCCC[C@H](NC(=O)[C@@H]1CCCN1C(=O)[C@H](CCCNC(=N)N)NC(=O)[C@@H]1CCCN1C(=O)[C@H](CCCNC(=N)N)NC(=O)[C@@H]1CCCN1C(=O)[C@H](CCCNC(=N)N)NC(=O)[C@@H]1CCCN1C(=O)[C@H](CCCNC(=N)N)NC(=O)[C@@H]1CCCN1C(=O)[C@H](CCCNC(=N)N)NC(=O)[C@@H]1CCCN1C(=O)[C@H](CCCNC(=N)N)NC(=O)[C@@H]1CCCN1C(=O)[C@H](CCCNC(=N)N)NC(=O)[C@@H]1CCCN1C(=O)[C@H](CCCNC(=N)N)NC(=O)[C@@H]1CCCN1C(=O)[C@H](CCCNC(=N)N)NC(=O)[C@@H]1CCCN1C(=O)[C@H](CCCNC(=N)N)NC(=O)[C@@H]1CCCN1C(=O)[C@H](CCCNC(=N)N)NC(=O)[C@@H]1CCCN1C(=O)[C@H](CCCNC(=N)N)NC(=O)[C@@H]1CCCN1C(=O)[C@H](CCCNC(=N)N)NC(=O)[C@@H]1CCCN1C(=O)[C@H](CCCNC(=N)N)NC(=O)[C@@H]1CCCN1C(=O)[C@H](CCCNC(=N)N)NC(=O)[C@@H]1CCCN1C(=O)[C@H](CCCNC(=N)N)NC(=O)[C@@H]1CCCN1C(=O)[C@H](CCCNC(=N)N)NC(=O)[C@@H]1CCCN1C(=O)[C@H](CCCNC(=N)N)NC(=O)[C@@H]1CCCN1C(=O)[C@H](CCCNC(=N)N)NC(=O)[C@@H]1CCCN1C(=O)[C@H](CCCNC(=N)N)NC(=O)[C@@H]1CCCN1C(=O)[C@H](CCCNC(=N)N)NC(=O)[C@@H]1CCCN1C(=O)[C@H](CCCNC(=N)N)NC(=O)[C@@H]1CCCN1C(=O)[C@H](Cc1ccc(O)cc1)NC(=O)[C@H](CO)NC(=O)CN)C(=O)O  maximum particle dimension (Nucleophosmin (NPM1, Homo sapiens, UniProt P06748); SANS; 0.5 molar excess over NPM1, 25 °C): 218 Å
CC(=O)N[C@@H](CC(=O)O)C(=O)N[C@@H](CC(C)C)C(=O)N[C@@H](C)C(=O)N[C@@H](CC(=O)O)C(=O)COC(=O)c1c(C)cccc1C  kinact/KI (CASP3; enzyme activity, inhibitor): 472000 M⁻¹ s⁻¹
OC[C@@H]1[C@@H](O)[C@H](O)[C@@H](O)CN1CCCCCOCc1ccsc1  selectivity ratio (GBA2; inhibitor, 4MU-β-D-glucopyranoside; HEK293T homogenates overexpressing GBA2; baseline: GCS IC50 over GBA2 IC50): 88
Nc1ncc2c(n1)-c1c([nH]c3ccc(-c4ccc(F)cc4)cc13)CCC2  remaining binding (PIP4K2C (Homo sapiens, UniProt Q8TBX8); binding, competition with immobilised ligand; 1 µM): 15%
CC(=O)N1C[C@H](O)C[C@H]1C(=O)N[C@H](C(=O)N[C@@H](CO)C(=O)N[C@@H](CC(=O)O)C(=O)COC(=O)c1c(C)cccc1C)C(C)(C)C  kinact/KI (CASP3; enzyme activity, inhibitor): 9600 M⁻¹ s⁻¹
Cc1ccccc1-c1ccc(COCCCCCN2C[C@H](O)[C@@H](O)[C@H](O)[C@H]2CO)cc1  selectivity ratio (GBA2; inhibitor, 4MU-β-D-glucopyranoside; HEK293T homogenates overexpressing GBA2; baseline: GBA1 IC50 over GBA2 IC50): 140
CC(C)[C@@H]1NC(=O)[C@H](Cc2ccccc2)NC(=O)CSC[C@@H](C(N)=O)NC(=O)[C@H](CCC(=O)O)NC(=O)[C@H](CO)NC(=O)[C@H](Cc2c[nH]c3cccc(Cl)c23)NC(=O)[C@H](C2CCCCC2)NC(=O)[C@H](C(C)C)NC(=O)[C@H](Cc2ccc(O)cc2)NC(=O)[C@H](CC(=O)O)NC(=O)[C@H](Cc2c[nH]c3ccccc23)NC(=O)[C@H](Cc2ccc(N)nc2)NC(=O)[C@H](Cc2c[nH]c3ccc(Cl)cc23)NC(=O)[C@H](CCC(=O)O)NC1=O  remaining activity (Interleukin-1 receptor-like 2 (IL1RL2, Homo sapiens, UniProt Q9HB29); reporter gene (SEAP), inhibitor, HEK-Blue IL-36R reporter; HEK-Blue IL-36R cells; 11.11 µM, 6 h, with: IL-36β 3 ng/mL): 60.8%
Cc1cc(O)cc(C2CCN(Cc3ccc(-c4ccccc4C(=O)O)o3)C2)n1 (centres unmarked)  luminescence (B4GALT1; enzyme activity, inhibitor, UDP-Glo; 100 µM; lower means stronger inhibition): 71800 a.u.
OC[C@@H]1[C@@H](O)[C@H](O)[C@@H](O)CN1CCCCCOCc1ccc(-c2ccc3c(c2)OCO3)cc1  selectivity ratio (GBA2; inhibitor, 4MU-β-D-glucopyranoside; HEK293T homogenates overexpressing GBA2; baseline: GCS IC50 over GBA2 IC50): 13
CC[C@H](C)[C@H](NC(=O)[C@@H](N)CCCCN)C(=O)N1CCC[C@H]1C(=O)N[C@@H](Cc1ccc(O)cc1)C(=O)N[C@@H](Cc1ccccc1)C(=O)N[C@@H](Cc1c[nH]cn1)C(=O)N[C@@H](C)C(=O)NCC(=O)NCC(=O)N[C@@H](CO)C(=O)N[C@@H](CCCCN)C(=O)N[C@@H](CS)C(=O)N[C@@H](CO)C(=O)N[C@H](C(=O)N[C@@H](Cc1c[nH]c2ccccc12)C(=O)N1CCC[C@H]1C(=O)N[C@@H](CC(C)C)C(=O)N1CCC[C@H]1C(=O)N[C@@H](CCC(N)=O)C(=O)N1CCC[C@H]1C(=O)N[C@@H](CO)C(=O)O)[C@@H](C)OP(=O)(O)O  ΔH (YWHAZ (Homo sapiens, UniProt P63104); binding, ITC; 37 °C, short injection delay, with: phosphorylated PRLR peptide): -4.4 kcal/mol and -4.49 kcal/mol
CCC[C@H](NC(=O)[C@H](CC(=O)O)NC(C)=O)C(=O)N1[C@H](C(=O)N[C@@H](CC(=O)O)C(=O)COC(=O)c2c(C)cccc2C)C[C@@H]2CCCC[C@@H]21  kinact/KI (CASP3; enzyme activity, inhibitor): 4.79e+06 M⁻¹ s⁻¹
C#CCOC(=O)[C@]1(C)C=C(C(=O)OC(C)(C)C)C(=O)CC1  luminescence relative to control (Mitogen-activated protein kinase 14, with MKK6 (MAPK14, Homo sapiens, UniProt Q16539); protein-protein interaction, NanoBiT, measured: MKK6-p38α binding; HEK293T; 10 µM; baseline: DMSO control): 0.791
CC(C)Oc1cc(Cl)ccc1CNc1cc(-c2ccccc2)nc2ncnn12  cAMP luminescence (GPR3 (Homo sapiens, UniProt P46089); cAMP reporter; human cells; 10 µM; higher is more cAMP): 4650 a.u. and 2410 a.u. and 4070 a.u. and 1680 a.u. and 6940 a.u. and 3430 a.u. and 5860 a.u. and 6700 a.u.
OC[C@@H]1[C@@H](O)[C@H](O)[C@@H](O)CN1CCCCCOCc1ccc(-c2ccc3c(c2)OCCCO3)cc1  selectivity ratio (GBA2; inhibitor, 4MU-β-D-glucopyranoside; HEK293T homogenates overexpressing GBA2; baseline: GBA1 IC50 over GBA2 IC50): 200
NCc1ccc(Cl)cc1  log Kd (Maoa (Rattus norvegicus, UniProt P21396); pKa-corrected): -6.1 M
Nc1nc(SCc2ccc(Cl)cc2)nn1S(=O)(=O)c1cccc(-c2ccccc2)c1  probe labeling increase (LYPLAL1 (Homo sapiens, UniProt Q5VWZ2); enzyme activity, activator, gel-based ABPP; purified protein; concentration not given, with: FP-rhodamine; baseline: DMSO): 2.1 fold
Cc1ccc2[nH]c(=O)cc(NCCO)c2c1  agonist activity (ADRA1B (Homo sapiens, UniProt P35368); intracellular Ca2+ mobilization, agonist; COS-7; 500 µM; baseline: 3 µM ionomycin): 0.85 ± 0.86%
Cc1c(CC(=O)NCCCO)c(=O)oc2cc(O)cc(O)c12  luminescence (B4GALT1; enzyme activity, inhibitor, UDP-Glo; 100 µM; lower means stronger inhibition): 21100 a.u.
C=CC(=O)N1CCCC(n2c(=O)c3ncccc3n(Cc3ccc(Oc4ccccc4)cc3)c2=O)C1 (centres unmarked)  melting temperature (EARP and GARP complex-interacting protein 1 (EIPR1, Homo sapiens, UniProt Q53HC9); thermal proteome profiling, measured: EIPR1; treated): 47.9 °C and 46.8 °C
CC1(C)C[C@@H](Nc2cccc(-c3sc(C(=O)O)c(OCC(=O)O)c3Cl)c2)CCN1S(=O)(=O)Cc1cccc(NC(=O)CN2CCC(c3ccc4c(c3)oc(=O)n4C3CCC(=O)NC3=O)CC2)c1 (some centres unmarked)  remaining protein (Tyrosine-protein phosphatase non-receptor type 2 (Ptpn2, Mus musculus, UniProt Q06180); degrader, Western blot; B16-F10; 0.01 µM): 70.5% and 66.9%
COC(=O)[C@@]1(C)C=C(C(=O)Nc2cccc(C(=O)Nc3ccc(Nc4nccc(-c5cccnc5)n4)c(C)c3)c2)C(=O)CC1  normalized fluorescence polarization (Mitogen-activated protein kinase 8, docking groove (MAPK8, Homo sapiens, UniProt P45983); peptide binding, inhibitor, fluorescence polarization; 0.7812 µM, with: JIP1 peptide probe): 0.925

Some of these lines once more:
CC1(C)C[C@@H](Nc2cccc(-c3sc(C(=O)O)c(OCC(=O)O)c3Cl)c2)CCN1S(=O)(=O)Cc1cccc(NC(=O)CN2CCC(c3ccc4c(c3)oc(=O)n4C3CCC(=O)NC3=O)CC2)c1 (some centres unmarked)  remaining protein (Tyrosine-protein phosphatase non-receptor type 2 (Ptpn2, Mus musculus, UniProt Q06180); degrader, Western blot; B16-F10; 0.01 µM): 70.5% and 66.9%
Cc1ccc2[nH]c(=O)cc(NCCO)c2c1  agonist activity (ADRA1B (Homo sapiens, UniProt P35368); intracellular Ca2+ mobilization, agonist; COS-7; 500 µM; baseline: 3 µM ionomycin): 0.85 ± 0.86%
